Measured values pooled from the literature.
A part holds a random share of what one study measured.

Study 1 — method: protein-binding microarray; molecule type: double-stranded DNA, one strand shown; matrix: in vitro; tested at: 940 nM top; setting: 60-bp whole probe; together with: salmon DNA 0.4 mg/ml; reference: random background probes; reading: higher = stronger binding; shared flanks, not repeated: GCCTAGCAC … GTCTTGATTCGCTTGACGCTGCTG
Target: Interferon regulatory factor 5, full length, phosphomimetic (IRF5, Homo sapiens, UniProt Q13568-2, residues 1-514, S451D/S453D/S456D/S462D)
Oligonucleotide | fitted relative affinity [z-score]
TCATTTTTTTTTTTCTGACTGTGCTAG | 1.26
GACGGTCTCCTTCTGCTGACGTGCTAG | 0.208
TTAGAACTCGGGTATCGATTAGTGCTA | 2.65
GACGAACTGGGTTTCGGGACGTGCTAG | 3.09
GACGATATCAGTAGCGAGACGTGCTAG | -0.354

Study 2 — method: protein binding microarray; molecule type: double-stranded DNA, one strand shown; matrix: in vitro; tested at: not given; reference: not given; reading: higher = stronger binding
Target: Histone acetyltransferase KAT6A, winged helix 1, GST fusion (KAT6A, Homo sapiens, UniProt Q92794, residues 1-85)
Setting: 8-mer, flanks averaged, mean of 2 arrays, mostly near background
Target sequence (chain): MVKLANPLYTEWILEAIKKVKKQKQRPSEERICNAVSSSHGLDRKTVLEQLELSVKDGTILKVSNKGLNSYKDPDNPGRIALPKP
Oligonucleotide | E-score
AATACGAG | -0.22
ACTATCCA | -0.0956
ATGCGGCA | 0.245
CGTGCTAG | 0.0879

Study 3 — method: RNAcompete; molecule type: RNA; matrix: in vitro; tested at: 20 nM; setting: 7-mer, probes averaged, single round; reference: mean of 7-mers; reading: higher = stronger binding
Target: PABPC1L2, full length, GST fusion (mouse, UniProt A0ABA7IW68)
Residues (chain): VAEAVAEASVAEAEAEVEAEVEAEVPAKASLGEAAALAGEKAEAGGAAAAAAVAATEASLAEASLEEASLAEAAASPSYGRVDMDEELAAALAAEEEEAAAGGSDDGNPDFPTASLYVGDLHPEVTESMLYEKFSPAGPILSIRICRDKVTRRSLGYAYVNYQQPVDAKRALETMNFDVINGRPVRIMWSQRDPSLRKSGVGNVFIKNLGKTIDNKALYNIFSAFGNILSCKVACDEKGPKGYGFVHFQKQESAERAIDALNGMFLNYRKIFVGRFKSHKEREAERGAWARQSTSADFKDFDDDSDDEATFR
Oligonucleotide | 7-mer Z-score
GCCACUG | -0.213
AGAGGCU | 0.0551
AAUCCGA | 0.0261

Single results of other studies
Substance | target | assay | test system | setting | how to read | quantity | value
PhoQ, residues 284 288 289 292 302 303 AEGLLW | PhoP, residues 12 14 15 18 19 AQCLL (Escherichia coli, UniProt P23836) | Sort-seq, refers to: YFP reporter | E. coli | PhoQ-PhoP variant library, together with: 10 µM Mg2+ | reference: high Mg2+ state, higher = stronger signaling | fold induction | 1.01

A few entries again (study 1):
Oligonucleotide | fitted relative affinity [z-score]
GACGAACTGGGTTTCGGGACGTGCTAG | 3.09
